Measurements collected from several papers.
Each numbered part is a random draw from the data of one study; scales do not carry over between parts.

Sample 1 — organism: VSVΔG with SARS-CoV-2 spike; effect on: pseudovirus infection; strain: Wuhan variant; concentration: 10 µM
`N#CC(C#N)=NNc1ccc2c(c1)OCCO2` has an inhibition of 45%.
`O=C(NC1CCN(Cc2ccccc2)CC1)c1cc2c(=O)n(Cc3ccccc3)ccc2s1` has an inhibition of 38%.
With `c1csc(-c2csc3nc(CN4CCOCC4)nc(Sc4nnc(C5CC5)o4)c23)c1` the inhibition was 39%.
`Cc1ccccc1NC(=O)N1c2ccccc2CC1c1noc(C2CCOCC2)n1` (stereo not drawn) gave an inhibition of 39%.
The inhibition of `CC1CN(S(=O)(=O)N2CC=C(c3c[nH]c4ncccc34)CC2)CC(C)O1` (stereo not drawn) is reported as 41%.
`N#CC(C#N)=C/C=C(/Sc1ncc(C(F)(F)F)cc1Cl)c1ccc(Cl)cc1` gave an inhibition of 47%.

Single results of other studies
rep nsp14: Replicase polyprotein 1ab, nsp14 (rep, Severe acute respiratory syndrome coronavirus 2, UniProt P0DTD1)
rep papain-like protease: Replicase polyprotein 1ab, papain-like protease (rep, Severe acute respiratory syndrome coronavirus 2, UniProt P0DTD1)
rep nsp12 RdRp: Replicase polyprotein 1ab, nsp12 RdRp (rep, Severe acute respiratory syndrome coronavirus 2, UniProt P0DTD1)
The inhibition of `Cc1ccc(NS(=O)(=O)c2cccc(C(=O)NC3CCN(c4ncnc5[nH]cnc45)CC3)c2)cc1` is reported as 85.2% (rep nsp14; 200 µM).
The activity of `O=C(Cc1cccc(OC(F)(F)F)c1)Nc1ccc(CCCCc2nnc(NC(=O)Cc3ccccn3)s2)nn1` is reported as 14.9% (rep papain-like protease; concentration not given, C111S mutant; relative to: positive control).
`N#CCC1(n2cc(-c3ncnc4[nH]ccc34)cn2)CN(C2CCN(C(=O)c3ccnc(C(F)(F)F)c3F)CC2)C1` has a BLI response of -0.03 nm (rep nsp12 RdRp; binding, biolayer interferometry; concentration not given).
`Nc1ccc2cc3ccc(N)cc3nc2c1` has an activity of 28.7% (rep papain-like protease; concentration not given, C111S mutant; relative to: positive control).
`Cc1nc2n(c(=O)c1CCN1CCC(c3noc4cc(F)ccc34)CC1)CCCC2O` (stereo not drawn) has a BLI response of 0.02 nm (rep nsp12 RdRp; binding, biolayer interferometry; 50 µM).
`O=C(NC1CCN(c2ncnc3[nH]cnc23)CC1)c1cccc(S(=O)(=O)N2CCCC2)c1` gave an inhibition of 1.51% (rep nsp14; NSP14 enzyme activity, inhibitor; 0.1953 µM).
